Measurements gathered from unrelated publications.
Each line is one published result; not all experiments were run side by side. Values joined by “and” are separate records of one study, mostly repeats; a detail may differ. ± gives the spread as reported.
Nuclear receptor subfamily 2 group C member 2 ligand-binding domain: Nuclear receptor subfamily 2 group C member 2, ligand-binding domain (Homo sapiens, UniProt P49116)
CDK14: Cyclin-dependent kinase 14 (CDK14, Homo sapiens, UniProt O94921)

| Structure (SMILES) | target or system | assay | test system | conditions | scale | endpoint | result |
| --- | --- | --- | --- | --- | --- | --- | --- |
| N[C@H](Cc1ccccc1)C(=O)O | PAL1 (Petroselinum crispum, UniProt P24481, Y110F) | binding, ITC |  |  |  | ΔH | -29.3 kcal/mol |
| Nc1ncnc2c1ncn2[C@@H]1O[C@H](COP(=O)(O)OP(=O)(O)O)[C@@H](O)[C@H]1O | Creatine kinase U-type, mitochondrial (CKMT1A, Homo sapiens, UniProt P12532, H99K) | substrate, Kinase-Glo luminescence |  | pH 7.0, reverse reaction, H61K mutant, added: second substrate in excess |  | kcat | 5 ± 1 s⁻¹ |
| O=C(/C=C\n1cnc(-c2cc(C(F)(F)F)cc(C(F)(F)F)c2)n1)NNc1cnccn1 | Exportin-1 (XPO1, Homo sapiens, UniProt O14980) | nuclear export, high content imaging | HeLa Kyoto reporter | 0.01 µM, 2 h |  | cells with nuclear reporter | 1.49% and 1.59% |
| COc1ccccc1S(=O)(=O)Nc1ccc2c(c1)CN(C)C(=O)N2 | OCI-Ly1 |  |  | 0.5 µM, 120 h |  | viability | 78.6% |
| O=c1nc(SCc2cc(F)cc(C(F)(F)F)c2)nc(SCc2ccc3nc(OCCN4CCOCC4)ccc3c2)[nH]1 | DNA topoisomerase 2-alpha (TOP2A, Homo sapiens, UniProt P11388) | DNA cleavage |  | 15.6 µM |  | mean linear DNA | 0% |
| O=C(CCCN1CCCN(c2ccc(Cl)cc2)CC1)c1ccc(F)cc1 | 5-hydroxytryptamine receptor 1A (HTR1A, Homo sapiens, UniProt P08908) | cAMP level, antagonist, GloSensor cAMP |  |  |  | Emax | 6.5% |
| O=C(O)c1cc(/N=N/c2ccc(O)c(C(=O)O)c2)ccc1O | Nuclear receptor subfamily 2 group C member 2 ligand-binding domain | SPR imaging |  | 600 nM |  | koff | 1.26e-07 s⁻¹ |
| O=C(/C=C/c1ccc(CN(CCO)CCc2c[nH]c3ccccc23)cc1)NO | OCI-Ly1 |  |  | 0.1 µM, 120 h |  | viability | 36.6% |
| Cc1cc(-c2ccnc3[nH]cc(F)c23)cc(F)c1[C@@]1(O)[C@H](C)CN(C2CCS(=O)(=O)CC2)C[C@@H]1C | AKT1 and AKT3 | ATP probe binding, KiNativ, refers to: Lys2 site | HEK293T cell lysate | 0.1 µM |  | inhibition | -4.1% |
| O=C(COP(=O)(O)O)[C@@H](O)[C@H](O)[C@H](O)COP(=O)(O)O | DNA-directed RNA polymerase II subunit RPB1 (Homo sapiens, UniProt P24928) | thermal proteome profiling, refers to: POLR2A | HepG2 cell lysate | concentration not given, 57 over 37 °C | reference: compound over control | thermal stability ratio | 0.5 and 0.438 and 0.7 |
| O=C(O)C1CCCNC1 (stereo not shown) | Sodium- and chloride-dependent taurine transporter (SLC6A6, Homo sapiens, UniProt P31641, G62A) | binding, microscale thermophoresis |  | 125 µM, room temperature, added: 50 nM labelled protein | higher = more binding | normalised MST signal | 0.0087 |
| CC(=C/C(=O)O)/C=C/C=C(\C)C1C=C2C(C)(C)CCCC2(C)O1 (stereo not shown) | Rhodopsin (RHO, Homo sapiens, UniProt P08100, P23H) | immunostaining, refers to: opsin | COS-7 transfected | 50.00 µM, unit not given | reference: surface over total stained cells | plasma membrane localization | 0.98 |
| CC[C@@H]1[C@H](F)C(=O)N[C@@H]1COc1nccc2cc(C(N)=O)c(OC)cc12 | CDK14 | ATP probe binding, KiNativ profiling, refers to: Lys1 probe site | THP-1 cell lysate | 0.04 mM |  | inhibition | 2.9% |
| CC[C@H](C)[C@@H]1NC(=O)[C@H](C)NC(=O)[C@H]([C@@H](C)CC)NC(=O)[C@H](CCC(N)=O)NC(=O)[C@H](C)NC(=O)[C@H](CCCNC(=N)N)NC(=O)[C@H](C(C)C)NC(=O)[C@H](CC(C)C)NC(=O)[C@H](CCC(=O)O)NC(=O)[C@H](CCCNC(=N)N)NC(=O)CNC(=O)[C@@H](NC(=O)[C@H](CC(C)C)NC(=O)[C@H](CCCCN)NC(=O)[C@@H](NC(=O)[C@@H](NC(=O)[C@H](CCC(=O)O)NC(=O)[C@H](CCC(=O)O)NC(=O)[C@H](CCSC)NC(=O)[C@H](Cc2c[nH]c3ccccc23)NC(=O)[C@H](CO)NC(=O)[C@@H](N)CC(=O)O)C(C)C)[C@@H](C)CC)CSSC[C@@H]2NC(=O)[C@@H](NC(=O)[C@H](CCCCN)NC(=O)[C@H](CC(N)=O)NC(=O)[C@H](C)NC(=O)[C@H](CC(C)C)NC(=O)[C@H](C)NC(=O)[C@H](CO)NC(=O)[C@H](Cc3ccc(O)cc3)NC(=O)[C@H](CC(C)C)NC(=O)[C@H](CCC(N)=O)NC(=O)c3ccc(-c4c5ccc(=[N+](C)C)cc-5oc5cc(N(C)C)ccc45)c(C(=O)[O-])c3)CSSC[C@H](NC(=O)CNC(=O)[C@H](C(C)C)NC(=O)[C@H](Cc3c[nH]cn3)NC2=O)C(=O)N[C@@H]([C@@H](C)O)C(=O)N[C@@H](CCCCN)C(=O)N[C@@H](CCCNC(=N)N)C(=O)N[C@@H](CO)C(=O)N[C@@H](CC(C)C)C(=O)N[C@@H](C)C(=O)N[C@@H](CCCNC(=N)N)C(=O)N[C@@H](Cc2ccccc2)C(=O)N[C@H](C(=O)O)CSSC[C@@H](C(=O)NCC(=O)N[C@@H](CCSC)C(=O)N[C@@H](CO)C(=O)N[C@H](C(=O)N[C@@H](Cc2c[nH]c3ccccc23)C(=O)N[C@@H](CO)C(=O)O)[C@@H](C)O)NC1=O | Relaxin receptor 1 (RXFP1, Homo sapiens, UniProt Q9HBX9) | binding, NanoBRET |  | concentration not given, added: relaxin 10 nM |  | fast dissociation fraction | 22.2% |
| Nc1[nH]nc2nnc(-c3c(-c4ccccc4)nn4ccccc34)cc12 | Mitogen-activated protein kinase 3 (MAPK3, Homo sapiens, UniProt P27361) | ADP-Glo |  | 3.81 nM, added: MBP substrate |  | kinase activity | 77.5% and 114% and 94.6% |
| CCCC[C@H]1CN(c2cccc(Cl)c2)C(=O)CN1Cc1cncn1Cc1ccc(Cl)cc1 | Cryptococcus neoformans farnesyltransferase | enzyme activity, inhibitor, fluorescence |  | added: 1 µM FPP, 0.5 µM dansylated peptide |  | IC50 | 1600 ± 800 nM |

| Structure (SMILES) | target or system | assay | test system | conditions | scale | endpoint | result |
| --- | --- | --- | --- | --- | --- | --- | --- |
| CC1(C)CC2(C)OC(=O)NC2(C)c2ccccc21 (stereo not shown) | DDB1- and CUL4-associated factor 1 (DCAF1, Homo sapiens, UniProt Q9Y4B6) | binding, affinity selection mass spectrometry |  |  | reference: other proteins in batch | fold enrichment | 0.815 |
| c1cncc(OC[C@@H]2CN(CCN3CCc4ccccc43)CCO2)c1 | D(1B) dopamine receptor (DRD5, Homo sapiens, UniProt P21918) | radioligand binding |  | concentration not given, added: [3H]SCH23390 |  | inhibition | 5.5% |
| Nc1nc2c(ncn2[C@@H]2O[C@H](COP(=O)(O)O)[C@@H](O)[C@H]2O)c(=O)[nH]1 | GUK1 (Homo sapiens, UniProt Q16774, E72A) | enzyme activity, NADH-coupled |  | 250 µM |  | reaction rate | 0.409 s⁻¹ and 0.462 s⁻¹ and 0.874 s⁻¹ |
| Cc1ccc(N2CC(C(N)=O)CC2=O)cc1 (stereo not shown) | F-box only protein 22, with SKP1 (Homo sapiens, UniProt Q8NEZ5) | binding, affinity selection mass spectrometry |  |  | reference: other proteins in batch | fold enrichment | 1 |
| Nc1ncnc2c1ncn2[C@@H]1O[C@H](COP(=O)(O)CP(=O)(O)OP(=O)(O)O)[C@@H](O)[C@H]1O | P2X purinoceptor 1 (P2RX1, Homo sapiens, UniProt P51575, L218T) | calcium influx |  | 100 nM | reference: ionomycin response | calcium influx | 36.4% and 67.2% and 43.8% |
| Nc1ncnc2c1ncn2[C@@H]1O[C@H](CSCC[C@H](N)C(=O)O)[C@@H](O)[C@H]1O | O-methyltransferase (Sorghum bicolor, UniProt A0A1B6PFV1) |  |  | concentration not given, added: PTR+ |  | ΔH of binding | -5.59 ± 0.14 kcal/mol |
| COc1cc(/C=C/C(=O)N2CCN(CC(=O)N3CCCC3)CC2)cc(OC)c1OC.O=C(O)/C=C\C(=O)O | Nuclear receptor subfamily 2 group C member 2 ligand-binding domain | SPR imaging |  | 600 nM |  | koff | 4.96e-07 s⁻¹ |
| Oc1ccc([C@@H]2c3c(O)cc(O)cc3[C@@H]3c4c(cc(O)c5c4[C@@H]2[C@H](c2ccc(O)cc2)[C@H]5c2cc(O)cc4c2[C@@H](c2cc(O)cc(O)c2)[C@H](c2ccc(O)cc2)O4)O[C@H]3c2ccc(O)cc2)cc1 | Pancreatic alpha-amylase (Homo sapiens, UniProt P04746) | enzyme activity |  | 10 µM |  | Vmax | 1760 ± 639 µmol/min |
| CC(C)C[C@@H]1NC(=O)[C@H](C(C)C)NC(=O)CNC(=O)[C@H](CC(N)=O)NC(=O)[C@@H]2CCCN2C(=O)[C@H](Cc2ccc(O)cc2)NC(=O)[C@H](CCCNC(=N)N)NC(=O)[C@H](C)NC(=O)[C@@H](NC(=O)[C@H](CCCCN)NC(=O)[C@@H]2CCCN2C(=O)[C@H](CO)NC(=O)[C@H](C)NC(=O)[C@@H](N)Cc2ccc(O)cc2)CSSC[C@@H](C(=O)N[C@H](C(N)=O)[C@@H](C)O)NC(=O)[C@H](C)NC1=O | Alpha-2-HS-glycoprotein, asialo (AHSG, Bos taurus, UniProt P12763) | binding, isothermal titration calorimetry |  | pH 7.0, 25 °C, added: asialofetuin |  | -ΔG | 5.04 kcal/mol |
| CN(CCOc1ccc(NS(C)(=O)=O)cc1)CCc1ccc(NS(C)(=O)=O)cc1 | Nuclear receptor subfamily 2 group C member 2 ligand-binding domain | SPR imaging |  | 600 nM |  | koff | 5.66e-07 s⁻¹ |
| C[C@H](N)C(=O)N[C@@H](CCCNC(=N)N)C(=O)N[C@H](C(=O)N[C@@H](C)C(=O)N[C@@H](CCC(N)=O)C(=O)N[C@H](C(=O)N[C@@H](C)C(=O)N[C@@H](CCCNC(=N)N)C(=O)N[C@@H](CCCCN)C(=O)N[C@@H](CO)C(=O)O)[C@@H](C)O)[C@@H](C)O | Transcriptional regulator ATRX (ATRX, Homo sapiens, UniProt P46100, F284Y/K251R) | isothermal titration calorimetry |  | concentration not given, pH 7.5, 25.0 °C |  | binding entropy | 0.37 cal/mol/K |
| C=CC(=O)N1CCC(COCC(=O)N2CCN(c3nc(-c4cnc(N)nc4C(F)F)nc(N4CCOC[C@@H]4C)n3)CC2)CC1 | Epidermal growth factor receptor (EGFR, Homo sapiens, UniProt P00533, G719C) | KINOMEscan |  | 1 µM | reference: DMSO control | remaining binding | 98% |
| C[C@@H](c1ccc(-n2cnc3c(N)ncnc32)cc1)N1CCc2nn(C)c(Cc3ccccc3)c2C1=O | CDK14 | KINOMEscan |  | 0.1 µM | reference: DMSO control | remaining binding | 100% |
| C[C@@H]1C/C=C/C=C/C=C/C=C/[C@H](O[C@@H]2O[C@H](C)[C@@H](O)[C@H](N)[C@@H]2O)C[C@@H]2O[C@](O)(C[C@@H](O)C[C@H]3O[C@@H]3/C=C/C(=O)O1)C[C@H](O)[C@H]2C(=O)O | Nuclear receptor subfamily 2 group C member 2 ligand-binding domain | SPR imaging |  | 600 nM |  | koff | 4.2e-05 s⁻¹ |
| Nc1ncnc2c1ncn2[C@@H]1O[C@H](COP(=O)(O)OP(=O)(O)OP(=O)(O)O)[C@@H](O)[C@H]1O | ATP-sensitive inward rectifier potassium channel 1 (Rattus norvegicus, UniProt P35560) | channel open probability, inhibitor, inside-out patch clamp |  | pH 7.4, Mg2+-free, 1.6 mM |  | Hill coefficient | ~3 |

Excerpt of the above:
| Structure (SMILES) | target or system | assay | test system | conditions | scale | endpoint | result |
| --- | --- | --- | --- | --- | --- | --- | --- |
| COc1ccccc1S(=O)(=O)Nc1ccc2c(c1)CN(C)C(=O)N2 | OCI-Ly1 |  |  | 0.5 µM, 120 h |  | viability | 78.6% |
| CC(=C/C(=O)O)/C=C/C=C(\C)C1C=C2C(C)(C)CCCC2(C)O1 (stereo not shown) | Rhodopsin (RHO, Homo sapiens, UniProt P08100, P23H) | immunostaining, refers to: opsin | COS-7 transfected | 50.00 µM, unit not given | reference: surface over total stained cells | plasma membrane localization | 0.98 |
| O=C(O)c1cc(/N=N/c2ccc(O)c(C(=O)O)c2)ccc1O | Nuclear receptor subfamily 2 group C member 2 ligand-binding domain | SPR imaging |  | 600 nM |  | koff | 1.26e-07 s⁻¹ |
